Results collected from several papers.
Lines come from different studies, so protocols differ.

SMILES | test system | conditions | AUC(0-t)
CS(=O)(=O)n1cc2c(n1)CN([C@H]1CO[C@H](c3cc(F)ccc3F)[C@@H](N)C1)C2 | male human, plasma | oral, 25 mg, single dose, fasted | 23.8 µM·h
CCOc1ccc(Cc2cc([C@@H]3S[C@H](CO)[C@@H](O)[C@H](O)[C@H]3O)c(OC)cc2C)cc1 | human, plasma | oral, 9 mg, single dose, fasted, healthy volunteers | 2960 ng·h/mL
O=C(NCCN1CCCC1)c1cc(-c2ccc(CN3CCOCC3)cc2)nc2ccc(F)cc12 | human, blood | oral, 100 mg, single dose, whole blood | 949 ng·h/mL
O=C(c1nc2n(n1)[C@H](c1ccccc1)C[C@@H]2F)C1CC1 | human, plasma | oral, 75 mg, single dose, fasted, healthy volunteers | 9820 ng·h/mL
CCCOc1ccc([C@H]2CNC(=O)N2c2ccc3[nH]cnc3c2)cc1 | human, plasma | oral, 200 mg, single dose, fasted | 1340 ng·h/mL
CC[C@@H]1C(=O)N(C)c2cnc(Nc3ccc(C(=O)N[C@H]4CC[C@H](N5CCN(CC6CC6)CC5)CC4)cc3OC)nc2N1C(C)C | human, plasma | intravenous, 50 mg, patients, infusion | 590 ng·h/mL
CNC(=O)c1ccc(-c2cnc3ncc(Cc4ccc5ncccc5c4)n3n2)cc1F | human, plasma | oral, 250 mg twice daily, multiple doses, steady state, patients | 7070 ng·h/mL
CN(C)C/C=C/C(=O)Nc1cc2c(Nc3ccc(F)c(Cl)c3)ncnc2cc1O[C@H]1CCOC1 | human, plasma | oral, 20 mg, multiple doses, once daily, steady state, patients | 442 ng·h/mL
CCCCCN1C[C@H](O)[C@@H](O)[C@H](O)[C@@H]1CO | human, plasma | oral, 100 mg, single dose, fasted, healthy volunteers | 3950 ng·h/mL
CS(=O)(=O)n1cc2c(n1)CN([C@H]1CO[C@H](c3cc(F)ccc3F)[C@@H](N)C1)C2 | male human, plasma | oral, 1.5 mg, single dose, fasted, healthy volunteers | 1.2 µM·h
